# Assay results of several laboratories.
# Protocols differ between the studies behind these lines. ± gives the spread as reported.
# Cell line: MDCK
Compound,test,conditions,CC50
CCC1(O)C([N+](=O)[O-])=NNc2nc(C)nn21 (stereo not shown),MTT,48 h,907 ± 78 µM
Cc1cc(-c2ccccc2)n2nc(-c3nc4sc5c(c4c(=O)o3)CCCCC5)nc2n1,MTT,48 h,101 ± 2 µM
c1nc(N2CCCCCC2)ncc1CNC12CC3CC(CC(C3)C1)C2,MTT,,38.1 µM
CCN(CC)CC#CCOC(=O)[C@]1(C)CCC[C@]2(C)c3ccc(C(C)C)cc3CC[C@@H]12,"cytotoxicity, MTT",48 h,21 µM
CC(=O)OC[C@H]1O[C@@H](Oc2cc(C)c3c(c2)C(=O)c2cccc(O)c2C3=O)[C@H](OC(C)=O)[C@@H](OC(C)=O)[C@@H]1OC(C)=O,"cell growth or viability, crystal violet",72 h,> 100 µM
CCC1(O)C([N+](=O)[O-])=NNc2nc(C(F)(F)F)nn21 (stereo not shown),MTT,48 h,432 ± 28 µM
CCN(CC)CC(=O)O[C@@H]1C[C@@H]2CC[C@@]1(C)C2(C)C,"cell growth or viability, MTT",48 h,79 µM
c1nc(N2CCCCCC2)cnc1CNC12CC3CC(CC(C3)C1)C2,MTT,,45.7 µM
COC(=O)[C@]1(C)CCC[C@]2(C)[C@H]3C[C@H]4C(C(C)C)=C[C@]3(CC[C@H]21)[C@H]1[C@@H]4[C@@H](OCC#CCN2CCOCC2)CC[C@@H]1O,"cytotoxicity, MTT",48 h,26 µM
Cc1nc2n(n1)C(C)(O)C([N+](=O)[O-])=NN2 (stereo not shown),MTT,48 h,> 1420 µM
COc1ccc(CNC(C)(C)C23CC4CC(CC(C4)C2)C3)c(O)c1,,,> 100 µM
COc1cc(-c2oc3cc(O[C@@H]4O[C@@H](C)[C@H](O)[C@@H](O)[C@H]4O)cc(O)c3c(=O)c2O[C@@H]2O[C@H](COC(=O)c3cc(O)c(O)c(O)c3)[C@@H](O)[C@H](O)[C@H]2OC(=O)c2cc(O)c(O)c(O)c2)ccc1O,MTT,48 h,> 108 µM
CC(C)C1=CC2=CC[C@@H]3[C@](C)(CCC[C@@]3(C)C(=O)OCC#CCN3CCOCC3)[C@H]2CC1,"cytotoxicity, MTT",48 h,7.9 µM
COc1cc(-c2oc3cc(O[C@@H]4O[C@H](CO)[C@@H](O)[C@H](O)[C@H]4O)cc(O)c3c(=O)c2O[C@@H]2O[C@H](CO[C@@H]3O[C@@H](C)[C@H](OC(C)=O)[C@@H](O)[C@H]3OC(C)=O)[C@@H](O)[C@H](O)[C@H]2O)ccc1O,MTT,48 h,> 115 µM
CCC1(O)C([N+](=O)[O-])=NNc2nc(SC)nn21 (stereo not shown),MTT,48 h,419 ± 36 µM
CN(C)CCCC(=O)O[C@@H]1C[C@@H]2CC[C@@]1(C)C2(C)C,"cell growth or viability, MTT",48 h,> 1120 µM
COc1ccc(CNC23CC4C5CC6CC4C(C2)C(C6)C5C3)c(O)c1,,,> 100 µM
CCN(CC)CC#CCOC(=O)[C@]1(C)CCC[C@]2(C)[C@H]3C[C@H]4C(C(C)C)=C[C@]3(CC[C@H]21)[C@@H]1C(=O)CCC(=O)[C@@H]14,"cytotoxicity, MTT",48 h,57 µM
C=C1C(=O)O[C@H]2C[C@H](C)C(/C=C/C(C)=O)=CC[C@H]12,MTS,,1.6 µM
COc1cc(-c2oc3cc(O[C@@H]4O[C@@H](C)[C@H](O)[C@@H](O)[C@H]4O)cc(O)c3c(=O)c2O[C@@H]2O[C@H](CO[C@@H]3O[C@@H](C)[C@H](O)[C@@H](O)[C@H]3O)[C@@H](O)[C@H](OC(C)=O)[C@H]2O)ccc1O,MTT,48 h,> 123 µM
CC(C)C1=CC2=C(C=O)C[C@@H]3[C@](C)(CCC[C@@]3(C)C(=O)OCC#CCN3CCCC3)[C@H]2CC1,"cytotoxicity, MTT",48 h,643 µM
O=C1/C(=N\NC(=S)NN=Cc2cccs2)c2ccccc2N1Cc1ccccc1,MTS,,46 µM
COC(=O)[C@]1(C)CCC[C@]2(C)[C@H]3C[C@H]4C(C(C)C)=C[C@]3(CC[C@H]21)[C@H]1[C@@H]4[C@@H](OCC#CCN2CCCC2)CC[C@@H]1O,"cytotoxicity, MTT",48 h,19 µM
CCN(CC)CCC(=O)O[C@@H]1C[C@@H]2CC[C@@]1(C)C2(C)C,"cell growth or viability, MTT",48 h,814 µM
CC(C)C1=C[C@@]23CC[C@@H]4[C@](C)(CCC[C@@]4(C)C(=O)OCC#CCN4CCCC4)[C@H]2C[C@@H]1[C@H]1C(=O)OC(=O)[C@H]13,"cytotoxicity, MTT",48 h,36 µM
C/C=C/C#CC#C/C=C/c1ccco1,"cell growth or viability, MTT",72 h,162 µg/mL
COc1cc(-c2oc3cc(O)cc(O)c3c(=O)c2O[C@@H]2O[C@H](CO[C@@H]3O[C@@H](C)[C@H](OC(C)=O)[C@@H](O)[C@H]3OC(C)=O)[C@@H](O)[C@H](O)[C@H]2O)ccc1O,MTT,48 h,> 141 µM
CC(C)c1ccc2c(c1)CC[C@H]1[C@](C)(C(=O)OCC#CCN3CCOCC3)CCC[C@]21C,"cytotoxicity, MTT",48 h,89 µM

# A few entries again:
Compound,test,conditions,CC50
CC(=O)OC[C@H]1O[C@@H](Oc2cc(C)c3c(c2)C(=O)c2cccc(O)c2C3=O)[C@H](OC(C)=O)[C@@H](OC(C)=O)[C@@H]1OC(C)=O,"cell growth or viability, crystal violet",72 h,> 100 µM
COC(=O)[C@]1(C)CCC[C@]2(C)[C@H]3C[C@H]4C(C(C)C)=C[C@]3(CC[C@H]21)[C@H]1[C@@H]4[C@@H](OCC#CCN2CCOCC2)CC[C@@H]1O,"cytotoxicity, MTT",48 h,26 µM
